Experimental data pooled from the literature.
Lines come from different studies, so protocols differ. Values joined by “and” are separate records of one study, mostly repeats; a detail may differ. Numbers after ± are the reported error. Values after ≈ are worked out from the molar mass of the structure shown.

| SMILES | test | system | conditions | scale | quantity | value |
| --- | --- | --- | --- | --- | --- | --- |
| Cc1cc(-c2ccc(C(=O)[C@@H]3CCCC[C@H]3C(=O)Nc3cnn4c3C(=O)NCC4)cc2)[nH]n1 | – | human, faeces | oral, 200 mg, 240-264 h | reference: dose | radioactivity recovery per interval | 0.16% and 0.2% |
| Cc1nc(N)nc2c1C(=O)N[C@@H](c1ccc(F)cc1-c1cccc(O[11CH3])n1)C2 | ex vivo biodistribution | healthy mice, brain | 60 min post-injection, baseline, vehicle pre-treatment | – | SUV | 2 ± 0.3 |
| CC[C@H](C)[C@@H]1NC(=O)[C@H](Cc2ccc(O)cc2)NC(=O)CCCSC[C@@H](C(=O)N(CC(=O)N[C@@H](CC(C)C)C(=O)NCC(N)=O)Cc2ccc(F)cc2)NC(=O)[C@H](CC(N)=O)NC(=O)[C@H](CCC(N)=O)NC1=O | – | human | intranasal, 200 µg repeated doses | – | adverse drug reactions | 67% |
| CCC(CC)CNC(=N)NC(=N)NCCCCCCNC(=N)NC(=N)NCC(CC)CC | metabolic stability | monkey, liver microsomes | 2 µM | – | microsomal CLint | 16.4 µL/min/mg |
| O=c1cc(/C=C/c2ccc(N(c3ccccc3)c3ccccc3)cc2)oc(/C=C/c2ccc(N(c3ccccc3)c3ccccc3)cc2)c1 | – | acetonitrile | 10 µM, 298 K | – | emission maximum | 562 nm |
| CN(C)C(=O)c1cccc(N2Cc3cn(Cc4ccc(Cl)cc4)nc3C2)c1 | metabolic stability | rat, liver microsomes | – | – | half-life | 44 min |
| CCCCN1C(=O)c2cccc3c(NCCCCN4CCOCC4)ccc(c23)C1=O | – | DMSO | – | – | emission maximum | 532 nm |
| O=C(O)c1c(O)cc(O[C@@H]2O[C@H](CO)[C@@H](O)[C@H](O)[C@H]2O)cc1/C=C/c1ccccc1 | crystal violet | NCTC 1469, mouse | 50 µM, 2 d | – | viability | > 50% |
| COc1ccc(Nc2nc(Nc3ccc(OCCOCCOCC[18F])cc3)ncc2Br)cc1 | – | ICR mice, S180 tumour-bearing, heart | intravenous, 370 kBq, 60 min | – | tissue uptake | 1.63 ± 0.09 %ID/g |
| CS(=O)(=O)c1cc(Cl)cc(-c2cc(Cl)c(Cl)cc2Cl)c1Cl | – | whole cow milk | 100 nM nominal | – | dose fraction in milk fat | 86.5% |
| CCCCN1C(=O)c2cccc3c(NCCCCCN4CCOCC4)ccc(c23)C1=O | – | ethylene glycol | – | – | emission maximum | 544 nm |
| CC(=O)N1CCN(C(=O)c2ccc(Nc3nccc(-c4ccc(Cl)cc4)n3)cc2)CC1 | – | NSG mice | dose not given, day 3 | – | body weight | 25 g and 24.6 g and 23.2 g and 24.8 g |
| OC1(C(F)(F)F)CCN(c2nc(Nc3ccnc(C(F)(F)F)c3)nc(-c3cccc(C(F)(F)F)n3)n2)C1 (centres unmarked) | – | monkey, both sexes, plasma | oral, 1 mg/kg, day 1 | – | AUC(0-inf) | 7620 ± 1640 ng·h/mL |
| COc1ccc(F)cc1C(=O)NCc1ccc(-c2nn([C@@H](C)C(F)(F)F)c(N)c2C(N)=O)cc1 | – | human | intravenous, 22 µg | – | hepatic clearance | 1.57 L/h |
| NCCCC[C@H](NC(=O)[C@H](Cc1c[nH]c2ccccc12)NC(=O)[C@H](CCCCN)NC(=O)[C@@H](N)Cc1c[nH]c2ccccc12)C(=O)N[C@@H](Cc1c[nH]c2ccccc12)C(=O)O | – | serum | 50% serum | – | time to complete degradation | ≤ 20 min |
| CC(C)(O)c1ncc([S@](N)(=O)=NC(=O)Nc2c3c(cc4c2CCC4)CCC3)s1 | item: general and administration-site disorders | healthy human volunteers | oral, 100 mg once daily, 14 days, spray-dried dispersion | – | subjects with adverse events | 50% |
| COc1cccc(OC)c1-c1cc(C(=O)NC2(C(=O)O)C3CC4CC(C3)CC2C4)nn1-c1ccc(C(=O)N(C)CCOCCOCCN(C)C(=O)[C@H](CCCCNC(=O)[C@H](CC(C)C)NC(=O)C2OC2C(=O)O)NC(=O)CN2CCN(CC(=O)[O-])CCN(CC(=O)[O-])CCN(CC(=O)[O-])CC2)cc1C(C)C.[177Lu+3] (mixture of isomers) | – | mouse HT-29 xenograft | 24 h, biodistribution | reference: tumour over spleen | tumour-to-spleen ratio | 2.69 |
| CCCC[N+]1=c2cc3c4cc2[O][Mn-2]1(=[C]=O)(=[C]=O)(=[C]=O)[n+]1ccc(cc1)C(=O)Oc1ccccc1OC(=O)c1cc[n+](cc1)[Mn-2](=[C]=O)(=[C]=O)(=[C]=O)([O]3)[N+]=4CCCC | – | DMSO/water 8:2 | dark | – | stability time | ≥ 24 h |
| COc1cccc(OC)c1-c1cc(C(=O)NC2(C(=O)O)C3CC4CC(C3)CC2C4)nn1-c1ccc(C(=O)N(C)CCCN(C)C(=O)[C@H](CCCCNC(=O)[C@H](CC(C)C)NC(=O)C2OC2C(=O)O)NC(=O)CN2CCN(CC(=O)[O-])CCN(CC(=O)[O-])CCN(CC(=O)[O-])CC2)cc1C(C)C.[177Lu+3] (mixture of isomers) | – | mouse HT-29 xenograft | 72 h, biodistribution | reference: tumour over pancreas | tumour-to-pancreas ratio | 27.4 |
| C=C[C@]1(C)C[C@@H](OC(=O)CSc2ccc(NC(=O)c3ccco3)cc2)[C@]2(C)[C@H](C)CC[C@]3(CCC(=O)[C@H]32)[C@@H](C)[C@@H]1O | – | M. gallisepticum-infected chickens, plasma | intramuscular, 5 mg/kg single dose | – | apparent volume of distribution | 8.88 L/kg |
| CCCCN1C(=O)c2cccc3c(NCCCCCCCCN4CCOCC4)ccc(c23)C1=O | – | acetonitrile | – | – | emission maximum | 526 nm |

| SMILES | test | system | conditions | scale | quantity | value |
| --- | --- | --- | --- | --- | --- | --- |
| O=S(=O)(NCc1ccncc1)c1ccc(C2CCCCC2)cc1 | – | CK mouse | 0.3 mg/kg | reference: vehicle | open field speed change | 3 ± 1 cm/s |
| Cc1c(C(N)=O)cc(Cl)c2c1O[C@@](C)([C@H]1CC[C@H](N(C)C)CC1)O2 | – | healthy men, urine and feces | oral, 200 mg [14C]-valemetostat | reference: dose | excretion | 0.64% |
| COc1cccc(OC)c1-c1cc(C(=O)NC2(C(=O)O)C3CC4CC(C3)CC2C4)nn1-c1ccc(C(=O)N(C)CCOCCN(C)C(=O)[C@H](CCCCNC(=O)[C@H](CC(C)C)NC(=O)C2OC2C(=O)O)NC(=O)CN2CCN(CC(=O)[O-])CCN(CC(=O)[O-])CCN(CC(=O)[O-])CC2)cc1C(C)C.[177Lu+3] (mixture of isomers) | – | mouse HT-29 xenograft | 4 h, biodistribution | reference: tumour over pancreas | tumour-to-pancreas ratio | 12 |
| CCCCN1C(=O)c2cccc3c(NCCN4CCOCC4)ccc(c23)C1=O | – | dichloromethane | – | – | emission maximum | 505 nm |
| CC(=O)N([O-])CCCCCNC(=O)CCC(=O)N([O-])CCCCCNC(=O)CCC(=O)N([O-])CCCCCN.[89Zr+4] | radio-TLC | aqueous buffer | 7 d, pH 7.2, 37 °C, 89Zr-labelled complex, with: CaCl2 10-fold excess | – | intact complex | 98.4 ± 1.6% |
| O=S1(=O)CC2CCCCC2CS1 (centres unmarked) | phase solubility, NMR | water | 25 °C, with: hydroxypropyl-β-cyclodextrin 1036 mM | – | solubility | 118 mM (≈ 24.3 mg/mL) |
| CN(C)C(=O)c1cccc(N2Cc3cn(CC4CCCCC4)nc3C2)c1 | metabolic stability | rat, liver microsomes | – | – | half-life | 1.4 min |
| CN[C@H](CC(C)C)C(=O)N[C@H]1C(=O)N[C@@H](CC(N)=O)C(=O)N[C@H]2CN[C@H]3C(=O)N[C@H](C(=O)N[C@H](C(=O)NCCCNC(=N)N)c4cc(O)cc(O)c4-c4cc3ccc4O)[C@H](O)c3ccc(c(Cl)c3)Oc3cc2cc(c3O[C@@H]2O[C@H](CO)[C@@H](O)[C@H](O)[C@H]2O[C@H]2C[C@](C)(NCc3ccc(-c4ccc(Cl)cc4)cc3)[C@H](O)[C@H](C)O2)Oc2ccc(cc2Cl)[C@H]1O | – | mouse | intravenous, 50 mg/kg | – | volume of distribution | 0.24 L/kg |
| C/C(N)=N/C(=N\S(=O)(=O)c1ccc(C(F)(F)F)cc1)N1C[C@H](c2ccccc2)C(c2ccc(Cl)cc2)=N1 | – | beagle dog, plasma | oral, 18 mg/kg | – | Cmax | 1520 ng/mL |
| COc1ccnc(C(=O)N[C@H]2COC(=O)[C@H](Cc3ccccc3)[C@@H](OC(=O)C(C)C)[C@H](C)OC2=O)c1O | soil adsorption | tested soils | geometric mean | – | Freundlich coefficient KF | 74 mL/g |
| CCCCN1C(=O)c2cccc3c(NCCCCCCN4CCOCC4)ccc(c23)C1=O | – | ethyl acetate | – | – | emission maximum | 513 nm |
| CCCC[C@H](NC(=O)CNC(=O)CNC(=O)[C@H](CCCCNC(=O)[C@H](CC(=O)O)NC(=O)C(C)c1ccc(CC(C)C)cc1)NC(=O)CN1CCN(CC(=O)O)CCN(CC(=O)O)CCN(CC(=O)O)CC1)C(=O)N[C@H]1CC(=O)NCCCC[C@@H](C(N)=O)NC(=O)[C@H](Cc2c[nH]c3ccccc23)NC(=O)[C@H](CCCNC(=N)N)NC(=O)[C@@H](Cc2ccccc2)NC(=O)[C@H](Cc2c[nH]cn2)NC1=O (some centres unmarked) [lutetium-177 labelled] | – | C57 mouse, urine | intravenous, 0.037 MBq, 4 h | – | excretion | 80.2 ± 2.02% |
| O=C(O)CCCOc1ccc([18F])cc1-c1cc(-c2ccccc2C(F)(F)F)n(-c2ccccc2)n1 | OLINDA/EXM from mouse data, item: heart wall | human adult | – | – | absorbed dose | 68.6 µGy/MBq |
| O=C(Nc1cnccc1-c1ccc([18F])nc1)c1ccnc(NC(=O)C2CC2)c1 | ex vivo gamma counting | GSK-3β transgenic mice, early-stage, brain stem | intravenous, 120 min, with: tariquidar 15 mg/kg iv | – | mean SUV | 0.063 |
| C=CC(=O)Nc1cc(Nc2nccc(-c3c[nH]c4ccccc34)n2)c(OC)cc1N(C)CCN(C)C | storage stability | human dried blood spots | 24 h, on ice, high QC level | – | recovery | 76.6% |
| C=CC(=O)N1CCCC(n2c(=O)c3ncccc3n(Cc3ccc(Oc4ccccc4)cc3)c2=O)C1 (centres unmarked) | metabolic stability | male Sprague-Dawley rat, hepatocytes | 1 µM, 30 min | – | compound remaining | 1.2% |
| O=C(Nc1cnccc1-c1ccc([18F])cc1)c1ccnc(NC(=O)C2CC2)c1 | – | FVB/NJ mouse, both sexes, brain | intravenous, 25 min, with: tariquidar 15 mg/kg iv | – | SUV | 0.41 |
| CCc1cnc(NC(=O)c2cc(S(=O)(=O)N3CCOCC3)ccc2N(C)C2CCCC2)s1 | – | mouse, blood | 10 mg/kg, 3 doses | – | Basophils differential count | 0% |
| C=C(NC(=O)c1csc(-c2nc3c(cc2O)-c2nc(cs2)C(=O)NC(C(C)O)C(=O)NC(=C(C)OC)c2nc(cs2)C(=O)NC2c4nc(cs4)C(=O)NC(COC(=O)c4c5c6c(cccc6n4O)COC(=O)C(OC4CC(C)(O)C(N(C)C)C(C)O4)C2OC5)c2nc-3cs2)n1)C(N)=O (centres unmarked) | – | cynomolgus monkey, male, plasma | intravenous infusion, 3 mg/kg, multiple doses, day 7 | – | Vz/F | 1.34 L/kg |
| CN1CCC[C@]1(C)/C=C/S(=O)(=O)NC(=O)Nc1c2c(cc3c1CCC3)CCC2 | item: nervous system disorders | human | oral, 12.5 mg twice daily, 14 days, multiple ascending dose | – | subjects with adverse event | 0% |

Some of these lines once more:
| SMILES | test | system | conditions | scale | quantity | value |
| --- | --- | --- | --- | --- | --- | --- |
| O=S(=O)(NCc1ccncc1)c1ccc(C2CCCCC2)cc1 | – | CK mouse | 0.3 mg/kg | reference: vehicle | open field speed change | 3 ± 1 cm/s |
| OC1(C(F)(F)F)CCN(c2nc(Nc3ccnc(C(F)(F)F)c3)nc(-c3cccc(C(F)(F)F)n3)n2)C1 (centres unmarked) | – | monkey, both sexes, plasma | oral, 1 mg/kg, day 1 | – | AUC(0-inf) | 7620 ± 1640 ng·h/mL |
| C=CC(=O)Nc1cc(Nc2nccc(-c3c[nH]c4ccccc34)n2)c(OC)cc1N(C)CCN(C)C | storage stability | human dried blood spots | 24 h, on ice, high QC level | – | recovery | 76.6% |
| C=C[C@]1(C)C[C@@H](OC(=O)CSc2ccc(NC(=O)c3ccco3)cc2)[C@]2(C)[C@H](C)CC[C@]3(CCC(=O)[C@H]32)[C@@H](C)[C@@H]1O | – | M. gallisepticum-infected chickens, plasma | intramuscular, 5 mg/kg single dose | – | apparent volume of distribution | 8.88 L/kg |
| CCc1cnc(NC(=O)c2cc(S(=O)(=O)N3CCOCC3)ccc2N(C)C2CCCC2)s1 | – | mouse, blood | 10 mg/kg, 3 doses | – | Basophils differential count | 0% |
| COc1cccc(OC)c1-c1cc(C(=O)NC2(C(=O)O)C3CC4CC(C3)CC2C4)nn1-c1ccc(C(=O)N(C)CCCN(C)C(=O)[C@H](CCCCNC(=O)[C@H](CC(C)C)NC(=O)C2OC2C(=O)O)NC(=O)CN2CCN(CC(=O)[O-])CCN(CC(=O)[O-])CCN(CC(=O)[O-])CC2)cc1C(C)C.[177Lu+3] (mixture of isomers) | – | mouse HT-29 xenograft | 72 h, biodistribution | reference: tumour over pancreas | tumour-to-pancreas ratio | 27.4 |
